Experimental data pooled from the literature.
A part holds a random share of what one study measured.

Series 1
Target: RNA binding protein fox-1 homolog 2, RRM domain, GST-SBP tag (RBFOX2, Homo sapiens, UniProt O43251-10, residues 100-194)
Method: RNA Bind-n-Seq
Form: RNA
Matrix: in vitro
Tested at: 365 nM
Notes: natural RNA segment, single round, ends assumed
Relative to: no-protein control
Direction: higher = stronger binding
All sequences stand within: GGGAGUUCUACAGUCCGACGAUC … UGGAAUUCUCGGGUGCCAA
Construct (chain): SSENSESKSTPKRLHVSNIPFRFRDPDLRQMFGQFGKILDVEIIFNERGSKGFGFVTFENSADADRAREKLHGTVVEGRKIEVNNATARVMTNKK
Under “RBNS enrichment (R)”, `UGACAGUAUCCCUUAACCUGCCACCGGUUUCCACCUUUCAACCCCCUGGUCUUAUAAGGGGAGGAGAGUUCAGCCCAGCACCAUAAUGCUUUAAAAAAAAAAAUUUUUUU` is recorded as 0.635.
`UGAGCUUCUCAGAGUGGAAUGACUCCUUUUCCUUCCUGGCCCUCGGGGGCCUCUCGAGGUCAGCCUCUCCAACCCCUACCUCAGCUCCUGUCUGCACUGAGAAACCUCCC` — result for “RBNS enrichment (R)”: 0.63.
For `GUCAUGUAGCUGUUUUAAGAAAUCUGGCCCAGGGUGUUUGCAGCUGUGAGAAGUCACUCACACUGGCCACAAGGACGCUGGCUACUGUCUAUUAAAAUUCUGAUGUUUCU`, “RBNS enrichment (R)” read 0.413.
For `CUUGAAGAAAAGAAUAGAAUUCUCUAGAGCAGAGUAUUUUAGUAUUUGUAACUGGCAGACUCUGGUUCCAUUGUAUUUGUUUCAAAAUGUGUUUUUGUUUGUUUGUUUGU`, “RBNS enrichment (R)” read 3.39.
For `GAGGUGCUUCAACCCCACCUACUCUGCCUUCCACCUCUCCCCAACCAUCACUGUAAUUUAUGGCCCCCGCCGUGGGGCAGCCUAGCCCUUGUGUCUGUGUAUAUACUGUG`, “RBNS enrichment (R)” read 0.64.
Under “RBNS enrichment (R)”, `CUUUGCAAUAUUUAAGAACCUAAUGCUGUUUAAUUUUGGUACAGCUUCCACAUUGCAUGUUCACUUUAGUAUUUGCAAUUUGAUAUAUUUCAUGGUGGCAAAAUAUUAGC` is recorded as 3.09.
`AAUAAAGCCUUUUUACUUGUGGGUGCAAUCGAUUUUUUUUCUUUCUCCUUUCUUUCAAGUGUCGUGAGUCGUCUUGAUUGUAUAUUGGAAAUAACUGUGUAACAAAUCGU`: “RBNS enrichment (R)” 0.289.
`AAAUUUGUUUGACUAUUUUAAAAUUAUAUUAGACCUUAAGCUGUUUUAGCAAGCAUUAAAGCAAAUGUAUGGCUGCCUUUUGAAAUAUUUGAUGUGUUGCCUGGCAGGAU` — result for “RBNS enrichment (R)”: 2.41.
`CUGGCUUCAGUUCCCUGGCUGCUGCUUUGCCUCCUGAAAGCCACUCUGUAGGACCAAGCACUCGGGGGAGAGGCCUAAGCCAUCCUCUGUUCCAGACUGGACAUCCACUG` — result for “RBNS enrichment (R)”: 0.423.
Under “RBNS enrichment (R)”, `UGCAUCUUGCCUUGGCUUGAGCCUUUUCGUUUUCAAUGCUGACUUCUCCCCUUUCUCUCCUGUGCUCACCUUACCUUUCCAGAGUGUAAGGGACAACUUUUAAGGAGGCG` is recorded as 0.229.
`UGACACUCACAGGGAGCCACUGUUCACUGACACUUGGAAGCGGUCAUUGUUAAUAUCACGGGCGUAACACUUUGAACGAUAUAGAGAUGCACAAACAGUUGAACUUAGAA` — result for “RBNS enrichment (R)”: 0.646.
`CCUGUACCAUAUUAUGGAAAACUGUUAACUGCUUAAUUGGGUAAUUUUCAAAGAAAGUAAUGUUGUUAAAUGGGGCGAAAUAAGAAGUUAAAUUUGAAAGUGAAUGUGUU` — result for “RBNS enrichment (R)”: 0.842.

Series 2
Target: Sal-like protein 4, full length isoform A (SALL4, Homo sapiens, UniProt Q9UJQ4, residues 1-1053)
UniProt Q9UJQ4, sequence (whole entry, looked up): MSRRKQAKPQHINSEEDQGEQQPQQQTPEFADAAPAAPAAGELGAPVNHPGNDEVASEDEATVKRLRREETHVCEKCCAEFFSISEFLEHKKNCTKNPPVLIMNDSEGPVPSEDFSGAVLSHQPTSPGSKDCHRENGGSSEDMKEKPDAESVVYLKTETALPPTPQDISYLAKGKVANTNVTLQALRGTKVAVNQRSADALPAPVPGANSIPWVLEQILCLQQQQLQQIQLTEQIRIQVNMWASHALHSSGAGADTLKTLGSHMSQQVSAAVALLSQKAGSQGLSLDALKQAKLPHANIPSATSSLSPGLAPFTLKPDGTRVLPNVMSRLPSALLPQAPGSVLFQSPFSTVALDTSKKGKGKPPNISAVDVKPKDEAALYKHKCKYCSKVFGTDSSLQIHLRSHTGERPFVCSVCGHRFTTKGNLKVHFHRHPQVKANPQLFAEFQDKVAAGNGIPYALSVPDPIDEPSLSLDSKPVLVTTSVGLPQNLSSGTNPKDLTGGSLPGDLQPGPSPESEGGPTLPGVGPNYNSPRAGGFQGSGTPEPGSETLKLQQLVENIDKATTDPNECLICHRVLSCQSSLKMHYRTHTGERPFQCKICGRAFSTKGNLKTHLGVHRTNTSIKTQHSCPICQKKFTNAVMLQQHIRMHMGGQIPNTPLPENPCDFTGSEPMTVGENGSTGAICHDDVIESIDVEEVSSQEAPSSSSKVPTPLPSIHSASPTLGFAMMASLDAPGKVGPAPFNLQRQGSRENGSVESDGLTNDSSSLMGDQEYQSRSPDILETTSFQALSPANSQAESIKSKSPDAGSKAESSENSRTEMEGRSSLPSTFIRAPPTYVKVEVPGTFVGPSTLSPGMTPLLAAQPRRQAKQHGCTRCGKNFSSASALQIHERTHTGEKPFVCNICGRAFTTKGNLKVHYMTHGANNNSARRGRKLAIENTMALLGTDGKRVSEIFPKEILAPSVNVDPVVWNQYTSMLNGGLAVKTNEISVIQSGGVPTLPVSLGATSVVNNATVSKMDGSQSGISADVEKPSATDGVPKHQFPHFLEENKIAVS
Method: universal PBM
Form: double-stranded DNA, one strand shown
Matrix: in vitro
Tested at: 600 nM
Notes: 8-mer, flanks averaged, mean of replicates
Direction: higher = stronger binding
`TGACTTAA` has an E-score of 0.187.
With `GTTGACCA` the E-score was -0.136.
For `AGGGAGGA`, the E-score was -0.125.
For `ACCTGGAG`, the E-score was -0.103.
`CTGCTAAC` gave an E-score of -0.0395.
The E-score of `ACCAAAAA` is reported as 0.277.
`GAACGCTA` gave an E-score of -0.0824.
The E-score of `CTACGCGC` is reported as -0.268.
`AGCTCCAC` gave an E-score of -0.237.
`CATTCGCA` gave an E-score of 0.0934.
For `AGGACTTC`, the E-score was -0.116.
With `ACAAAGAA` the E-score was 0.258.
`CGATGTCC` has an E-score of -0.231.
`AGAGCGAA` has an E-score of -0.106.
`CCCAGCGC` has an E-score of -0.392.
`AACTCGGG` gave an E-score of -0.262.
The E-score of `GACACGTC` is reported as -0.204.
The E-score of `ACCAACAA` is reported as 0.0632.
With `AGGGCCTA` the E-score was -0.227.
The E-score of `TCGCCTAA` is reported as -0.135.
The E-score of `GACGTTGC` is reported as -0.157.
`CATTGCGC` has an E-score of -0.0199.
`ACTTCCGG` gave an E-score of -0.0931.
For `CCGTAATA`, the E-score was 0.23.
The E-score of `CGACAAGC` is reported as -0.227.

Series 3
Target: Hepatocyte nuclear factor 3-alpha (Foxa1, Mus musculus, UniProt P35582, residues 1-468, full length assumed)
Method: EMSA with sequencing
Form: double-stranded DNA, one strand shown
Matrix: in vitro
Tested at: 10 and 20 nM
Notes: whole designed probe, mean of two concentrations, ends assumed
Relative to: negative control set to 0
Direction: higher = stronger binding
All sequences stand within: GTGAGCGGTGCCCATTGATGGGGAAC … TTTCACTGGGATCGTGGGGAC
Target sequence (chain): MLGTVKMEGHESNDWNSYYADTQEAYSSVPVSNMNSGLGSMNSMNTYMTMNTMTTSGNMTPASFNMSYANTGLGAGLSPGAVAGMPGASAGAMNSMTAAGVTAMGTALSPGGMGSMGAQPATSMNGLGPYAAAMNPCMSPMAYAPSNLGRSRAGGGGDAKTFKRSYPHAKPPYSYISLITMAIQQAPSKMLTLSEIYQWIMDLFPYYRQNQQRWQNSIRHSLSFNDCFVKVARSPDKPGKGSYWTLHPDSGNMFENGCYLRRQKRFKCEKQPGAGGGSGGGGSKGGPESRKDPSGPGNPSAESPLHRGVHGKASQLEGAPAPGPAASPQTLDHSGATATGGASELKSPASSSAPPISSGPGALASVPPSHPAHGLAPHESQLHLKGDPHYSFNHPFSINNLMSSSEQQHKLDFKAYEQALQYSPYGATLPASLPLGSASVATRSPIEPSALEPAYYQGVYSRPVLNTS
`ATATACCTTTATTGCATATTAACAATTTCATAATGTGTCAAATTTATCCCAAACTTCTAGCTAAAATCTTTAAGAGTGCTGTTAAAGATAATGTAATCTAGCACTATTTTCTTTACTTAGCGAACAAGATTGGCCGAGTAATGTCAATTATTTTGCAACATGTTCCATTAATCAGTATACATTAAGTATCACT`: “normalised bound fraction” 0.0357 ratio.
Under “normalised bound fraction”, `TAGGCCAGCGGTTTCTTGTATAAAGGAAACAAAAGTCATATAATTCCTTTTACTAAGGTCACTGACCTTTGCAGCTTCTTCCACGATGAGAGAGTAAACAGAAGATGACTAAGTGTTTTTGACATCCAAAGTCACCCACAGCCAGAACCAGAGTCTGGGAGAAGTGTATTTTGGACATCGTGACCTCAACTAT` is recorded as 0.298 ratio.
Under “normalised bound fraction”, `ATCTTCCCCCTCTTCCTTGCCCCACCAGCTCACCTTCCCGGGTTATTTGCACAAAGGAAAATAAATAAAGCCGGCATTCGTTAACGCAGTTCACGCGCATACTGCTGTTTGCTCTGGATGAATCATGGTCCTTTGGCGACGCCAGGCTCCGGGAGAGCAAAGCACCGTGTCAGGGCCATGATCCGGGGTGGCC` is recorded as 0.365 ratio.
`CATAGTGCTGCCAAGTAATTCTCTAGGTTGTAGAATTATTATTTATTCAGAACACTAAGCTAGATTCAGTTTTCTGCTAAGCTACAAAATAAGTAAACATGAATTACTTGGATTCCAGGATCCTGGATATAGACTAAAGATGACATTCCATTATATTTAGAAAATGACTGTTAAGTAAGAGAAAATTTCCAGA`: “normalised bound fraction” 0.351 ratio.
Under “normalised bound fraction”, `CCCATGTTAAGAGGCCAGGCAGACAGACCTAGGGCTGGATCTGCAGATAAGTCATCTACACTGGACCCTTGGCTTTGCTTTTAATTGGTTCAATATTTGCACAGAGTCAACTCACCTGCGCCTTACCTACTCAATAACAAGCTTTCTCTCAGTCACCCAGAAGAAACTGCAAAGAAAAGCAAATTGTTTCAGG` is recorded as 0.348 ratio.

Series 4
Target: Histone acetyltransferase KAT6A, winged helix 2, GST fusion (KAT6A, Homo sapiens, UniProt Q92794, residues 85-181)
Method: protein binding microarray
Form: double-stranded DNA, one strand shown
Matrix: in vitro
Tested at: not given
Notes: 8-mer, flanks averaged, mean of 2 arrays, mostly near background
Relative to: not given
Direction: higher = stronger binding
Target sequence (chain): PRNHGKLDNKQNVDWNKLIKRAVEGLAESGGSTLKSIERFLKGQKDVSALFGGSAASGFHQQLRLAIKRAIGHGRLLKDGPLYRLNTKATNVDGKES
`ATTTAAAA` gave an E-score of 0.0818.
For `GAGGGGAC`, the E-score was 0.084.
`CACATCGG` gave an E-score of -0.0262.
The E-score of `ACAACTCA` is reported as -0.0419.
`GGTAAGCA` gave an E-score of 0.0794.
With `CATAGCAA` the E-score was 0.037.
The E-score of `CGCGCGTC` is reported as 0.0997.
With `CAGTCGTC` the E-score was -0.136.
`GAAAAACC` has an E-score of 0.0759.
The E-score of `CCCCCCAC` is reported as -0.143.
For `GAGGTGGA`, the E-score was -0.134.
The E-score of `ACTGGTCT` is reported as -0.0749.
`GAAGTCAA` has an E-score of -0.059.
`TAATTGTA` gave an E-score of 0.0676.
`TACCAGTA` has an E-score of 0.0224.
For `ACAGCTTG`, the E-score was 0.044.
`AGAGCGGC` gave an E-score of 0.097.
The E-score of `CACTATAC` is reported as 0.0289.
`ATTGGCTG` has an E-score of -0.042.
The E-score of `TACCGGTA` is reported as -0.319.

Series 5
Target: Prothrombin, mature alpha-thrombin (F2, Homo sapiens, UniProt P00734)
Method: aptamer microarray, sandwich
Form: DNA with 2'F-ANA
Matrix: in vitro
Tested at: 200 nM
Notes: whole 15-mer aptamer, many near background
Added: Cy3 exosite-II aptamer, 400 nM
Direction: higher = stronger binding
Strand: GGTTGGTGTGGTTGG
Under “mean fluorescence intensity”, `2'F-ANA at 1 9 11 13 14` is recorded as 50.4 a.u.
For `2'F-ANA at 1 3 4 5 6 10 13 14`, “mean fluorescence intensity” read 48.5 a.u.
`2'F-ANA at 4 5 6 8 10 11 13 14`: “mean fluorescence intensity” 44.8 a.u.
`2'F-ANA at 2 3 4 5 9 11 13 15` — result for “mean fluorescence intensity”: 60.7 a.u.
`2'F-ANA at 3 5 9 10 13 15`: “mean fluorescence intensity” 66.8 a.u.
`2'F-ANA at 2 5 7 8 12 13`: “mean fluorescence intensity” 139 a.u.
Under “mean fluorescence intensity”, `2'F-ANA at 1 2 6 7 11 13 14 15` is recorded as 52.6 a.u.
`2'F-ANA at 1 4 5 6 7 11 12 14`: “mean fluorescence intensity” 56.6 a.u.
`2'F-ANA at 2 8 9 10 11 12` — result for “mean fluorescence intensity”: 149 a.u.
`2'F-ANA at 1 3 5 7 8 9 12` — result for “mean fluorescence intensity”: 193 a.u.
Under “mean fluorescence intensity”, `2'F-ANA at 6 8 11 13 14 15` is recorded as 246 a.u.
`2'F-ANA at 1 3 5 8 9 10 11 13 14` — result for “mean fluorescence intensity”: 46.9 a.u.
For `2'F-ANA at 1 2 4 5 6 13 14 15`, “mean fluorescence intensity” read 51.6 a.u.
`2'F-ANA at 4 5 6 7 8 9`: “mean fluorescence intensity” 79.3 a.u.
For `2'F-ANA at 1 4 8 9 11`, “mean fluorescence intensity” read 114 a.u.
`2'F-ANA at 2 3 5 6 8 12 14` — result for “mean fluorescence intensity”: 56.5 a.u.
`2'F-ANA at 1 3 5 7 15` — result for “mean fluorescence intensity”: 64.2 a.u.
For `2'F-ANA at 2 7 10 12 13 14 15`, “mean fluorescence intensity” read 117 a.u.
`2'F-ANA at 1 2 4 5 7 8 9 12 13 14 15` — result for “mean fluorescence intensity”: 49.3 a.u.
`2'F-ANA at 1 2 5 6 9 12 14`: “mean fluorescence intensity” 47.2 a.u.
`2'F-ANA at 2 3 5 7 9 10` — result for “mean fluorescence intensity”: 53.7 a.u.
`2'F-ANA at 4 5 6 9 11 12 13 14`: “mean fluorescence intensity” 48.2 a.u.
`2'F-ANA at 1 4 7 11 12 13 15` — result for “mean fluorescence intensity”: 185 a.u.
Under “mean fluorescence intensity”, `2'F-ANA at 2 4 5 6 7 8 11 12 13 14 15` is recorded as 60.5 a.u.
`2'F-ANA at 2 3 5 7 8 9 12 13 14` — result for “mean fluorescence intensity”: 59.1 a.u.
